{"data": "Measured values pooled from the literature", "note": "Each numbered part is a random draw from the data of one study; scales do not carry over between parts. Changes are numbered by the printed parent chain."}
{"data": "Sample 1", "target": "CCNF, cyclin fold, Cln2 fusion (human)", "method": "yeast growth competition, sequencing", "medium": "yeast", "notes": "strong parent motif", "relative to": "not given", "direction": "higher = stronger binding", "parent": "MICAL3 docking peptide (human); LQLRRQLSFSEDS; partner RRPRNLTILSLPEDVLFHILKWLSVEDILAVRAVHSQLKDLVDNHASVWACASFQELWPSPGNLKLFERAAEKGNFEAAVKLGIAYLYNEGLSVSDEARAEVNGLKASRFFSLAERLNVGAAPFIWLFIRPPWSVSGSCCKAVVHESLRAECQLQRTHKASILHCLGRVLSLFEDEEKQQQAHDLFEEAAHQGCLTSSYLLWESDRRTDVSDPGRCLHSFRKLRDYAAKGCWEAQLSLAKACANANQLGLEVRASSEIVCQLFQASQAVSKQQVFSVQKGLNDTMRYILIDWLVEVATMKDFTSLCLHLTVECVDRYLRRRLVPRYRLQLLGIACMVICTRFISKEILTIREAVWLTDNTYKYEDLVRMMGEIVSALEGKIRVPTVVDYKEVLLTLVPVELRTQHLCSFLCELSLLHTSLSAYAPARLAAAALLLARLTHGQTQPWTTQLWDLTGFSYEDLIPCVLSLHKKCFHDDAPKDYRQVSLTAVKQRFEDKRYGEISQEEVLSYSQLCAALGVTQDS"}
{"Substitution": "F9C", "normalised enrichment score": 0.423}
{"Substitution": "R5A", "normalised enrichment score": 0.312}
{"Substitution": "S8D", "normalised enrichment score": 6.22}
{"Substitution": "L7C", "normalised enrichment score": -0.114}
{"Substitution": "D12G", "normalised enrichment score": 5.32}
{"Substitution": "D12V", "normalised enrichment score": 5.55}
{"Substitution": "D12K", "normalised enrichment score": 4.78}
{"Substitution": "R5P", "normalised enrichment score": -0.0672}
{"Substitution": "Q6L", "normalised enrichment score": 1.35}
{"data": "Sample 2", "target": "FOSL1, bZIP domain (human)", "method": "DHFR protein complementation", "medium": "yeast", "notes": "single substitutions, most at no-binding floor", "relative to": "wild-type JUN-FOS pair", "direction": "higher = stronger binding", "parent": "JUN, bZIP domain (human); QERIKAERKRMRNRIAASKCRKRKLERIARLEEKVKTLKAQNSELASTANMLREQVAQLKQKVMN; partner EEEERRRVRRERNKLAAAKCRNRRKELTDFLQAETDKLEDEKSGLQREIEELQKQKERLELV"}
{"Substitution": "A49P", "binding fitness": "-1.43 natural log"}
{"Substitution": "L38A", "binding fitness": "-1.27 natural log"}
{"Substitution": "L52K", "binding fitness": "-1.23 natural log"}
{"Substitution": "A57S", "binding fitness": "-0.523 natural log"}
{"Substitution": "A40Y", "binding fitness": "-0.713 natural log"}
{"Substitution": "E32P", "binding fitness": "-1.31 natural log"}
{"data": "Sample 3", "target": "CRIPT, C-terminal peptide", "method": "DHFR complementation, deep sequencing", "medium": "yeast", "notes": "single substitutions, model-inferred values", "relative to": "wild type", "direction": "higher = weaker binding", "parent": "ERBIN, PDZ domain 1 (human); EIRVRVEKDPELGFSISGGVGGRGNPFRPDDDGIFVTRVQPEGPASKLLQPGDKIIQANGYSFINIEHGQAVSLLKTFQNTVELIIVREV; partner TKNYKQTSV"}
{"Substitution": "V36Y", "binding free energy change [kcal/mol]": 0.86}
{"Substitution": "P10Q", "binding free energy change [kcal/mol]": -0.654}
{"Substitution": "Q79L", "binding free energy change [kcal/mol]": 0.0649}
{"Substitution": "Q40M", "binding free energy change [kcal/mol]": 0.134}
{"data": "Other studies, line by line"}
{"Molecule": "PhoQ, residues 284 288 289 292 302 303 SNGLAW", "target": "PhoP, residues 12 14 15 18 19 LHSVW (Escherichia coli, UniProt P23836)", "test": "Sort-seq, refers to: YFP reporter", "system": "E. coli", "conditions": "PhoQ-PhoP variant library, with: 10 µM Mg2+", "scale": "relative to: high Mg2+ state, higher = stronger signaling", "measurement": "fold induction", "result": 8.14}
